Measurements gathered from unrelated publications.
Parts stem from different laboratories: compare values within a part only.

Set 1 — method: protein binding microarray; form: double-stranded DNA, one strand shown; medium: in vitro; tested at: not given; relative to: not given; reading: higher = stronger binding
Target: Histone acetyltransferase KAT6A, both winged helices, GST fusion (KAT6A, Homo sapiens, UniProt Q92794, residues 1-181)
Notes: 8-mer, flanks averaged, mean of 2 arrays, mostly near background
Construct (chain): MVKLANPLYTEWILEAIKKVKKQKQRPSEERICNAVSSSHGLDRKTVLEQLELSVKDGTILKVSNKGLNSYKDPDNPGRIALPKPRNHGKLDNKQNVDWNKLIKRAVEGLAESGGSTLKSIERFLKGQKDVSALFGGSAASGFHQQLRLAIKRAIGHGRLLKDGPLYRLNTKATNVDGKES
| Strand | E-score |
| --- | --- |
| CCACTGGG | -0.254 |
| CGACAGCA | 0.061 |
| AATTTCAA | -0.174 |
| AATGGTTA | -0.0309 |
| CGTAGTAA | 0.0348 |
| ATATGTGC | 0.0817 |
| ATATACAT | -0.0667 |
| CGGTATAC | 0.164 |
| GGTAAATA | -0.115 |
| TGGCACAA | -0.236 |
| GCTTAGCA | 0.0419 |
| GTGGTTTA | 0.0667 |
| ATATTTTG | -0.127 |
| CTCAGAAA | -0.197 |
| CCGGAGCG | 0.317 |
| CCAATTTA | -0.152 |
| CTCGGGGC | 0.0124 |
| CCACTGCC | -0.0771 |

Set 2 — method: RNA Bind-n-Seq; form: RNA; medium: in vitro; tested at: not given; notes: RNA with constant flanks, ends assumed; relative to: input RNA pool; reading: higher = stronger binding
Target: RING finger protein unkempt homolog, zinc fingers 1-6, GST-SBP tag (UNK, Homo sapiens, UniProt Q9C0B0, residues 30-357)
Sequence of UniProt Q9C0B0 (30-357, looked up): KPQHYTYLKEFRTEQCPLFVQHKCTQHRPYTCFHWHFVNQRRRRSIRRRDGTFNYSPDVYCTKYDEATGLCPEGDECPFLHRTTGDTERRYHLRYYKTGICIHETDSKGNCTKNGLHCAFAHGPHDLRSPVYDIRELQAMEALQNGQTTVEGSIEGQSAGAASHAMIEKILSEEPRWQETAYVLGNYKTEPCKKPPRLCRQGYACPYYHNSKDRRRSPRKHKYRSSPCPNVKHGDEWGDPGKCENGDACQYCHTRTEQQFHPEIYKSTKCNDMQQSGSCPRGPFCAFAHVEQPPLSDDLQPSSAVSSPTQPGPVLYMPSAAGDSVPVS
Shared flanks, not repeated: GGGAGUUCUACAGUCCGACGAUC … CAACAGAGGAUUGAGCAUCA
| Strand | bound/input enrichment [ratio] |
| --- | --- |
| CUGCUGUCCAAGAUCGAUGGCGUUGAGCAGCUGAACAACAUCCUCGUUAUCGGAAUGACCAACCGACCAGAUUUGAUAGACGAAGCUCUCCUUCGACCCGGAAGACUGGAAGUUAAAAUG | 0.333 |
| UCUGCUUGUUCCGGCCACUGCUUGUGUGAGCUUUAUUUUGUGUGUGUGUAUGUGCCUUGGAACCGAAAACACCCCUUUGCAUUCAAUUUCUCUCAUCCCUAAAAGCUUUUAAAGACAUGC | 0.267 |
| GGUGUUGCUGGAGUAGGGGCUGGUCUGGCAUAUCUAAUAAGAUAGCCUUGUGAGUGCAACCGGGGACUCUUAAAGCUCCAGCCACCAAACUACAUGCAUCUGUGAAAACAUGUGUAUUUA | 0.142 |
| AGGGCCUUGCAGAAACUACAGGAGAACACCUAUAUAAAACUUGUGAUUUCCAACUUGGAGAACCGUCUUCUUCAAUUCCAUAUUCAUGCGUGGCAUGAAUCAUCUCAUAUAUUCUUAUGA | 0.11 |
| AUCUAUACAACCAUCAACGCUCACCAGUGGUCUGAGACGGUCCAGCCAAUUAUGGAAGCACUCCGAGAUGCAACAAGGAGACGCGCCUUUGCCCUGGUCUCUCAAGCGUAUACUUCAAUC | 0.177 |
| CAGUGGUAUUAAUGGAUGGCAUUAUGUUUGGAGGCAGCAGCAUAGAGGACUGUUGUUUACCGAGAAAAGAUUUGGGAAGGACUGUUUACAAUGUGGGUCAGCCUGAAGCCUGGGCACUUU | 0.705 |
| CCAGCAGAGAAGAAAUGUGGAGCGGAAACCCAGCACGAGGGGCUAGAACUCAGGGCCGAGAAUUUGCAGGCGGUGCAGACAGACUUUAGCUCCGAUCCACUGCAGAAAGUUGUGUGCUUC | 0.203 |
| AUAGAAUUCUGUACCCCAGUAAUCAACUAGUUUUCUAUUAAUGUGCUUGUCUGUUCUAAGAGCCGGAUUAACACAGGGGAAGUCUUGAGAAGGAGUUUUGAUUCUUUUAUAUGUUUUUAA | 4.57 |
| CAGCAUGUCAUAGAAACCUUGAUUGGCAAAAAGCAGCAGAUCUCUCUUGCCACCCAGAUGGUCCGGAUGAUUCUGAAGAUUGAUGACAUCCGUAAGCCUGGAGAAUCUGAAGAAUAAACU | 0.141 |
| UUCUCCGUACUUUUCUCUGAAAGGAAUCUUGUCUUGUUAAACCCUAAAGAGAGUGUCCUUAACCGCAAUCAGCACUUGUAAGCUUAUAUACUGGUGCAUUUGGUUUUCUGUUGGGUGAAU | 0.332 |
| UGCUCGUUUGCUUCUUCCAUCCUUUCUUCUGAGGGAGGGGUCCUGUUGUAGUGUGAAUUCUACCGUCUCGCUUGUCCUUGAAUUUAUGGAAACCCUUCAUUUCAGCUUCUCUAGUGUUGG | 0.257 |

Set 3 — method: RNA Bind-n-Seq; form: RNA; medium: in vitro; tested at: 365 nM; relative to: no-protein control; reading: higher = stronger binding
Target: RNA binding protein fox-1 homolog 2, RRM domain, GST-SBP tag (RBFOX2, Homo sapiens, UniProt O43251-10, residues 100-194)
Notes: natural RNA segment, single round, ends assumed
Shared flanks, not repeated: GGGAGUUCUACAGUCCGACGAUC … UGGAAUUCUCGGGUGCCAA
Construct (chain): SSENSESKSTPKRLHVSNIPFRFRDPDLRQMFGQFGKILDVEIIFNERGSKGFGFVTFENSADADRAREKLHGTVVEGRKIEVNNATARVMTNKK
| Strand | RBNS enrichment (R) |
| --- | --- |
| CAAAAGAUGUUUGUUUCUUAUUCAUUCCACUUUUGUCUCCUGGGAUCCCUUCUGUAGCCUAAAGUAUGGCUGGGAAAUGGACUUGAGAAGAUUGGCUUGAAUUAGAUCAU | 0.837 |
| UAGCCAAACACUCUACAACUGAGCUACAUCCUCCAGCCUAGGCUGUAAAUGUUUUUUGGAGCUAGAUUAGCUGCCUGCCAACCUUAGAACUGCAAAGCCAUUCCUGACCU | 0.352 |
| AAUACCUGUGGAAAACCAGGGAUCCUCUCCUGUUUCUCUCUCUUGCCUCCCCCUUUCCCUCCAUUCCUCUGUCGCCUCCCCCUCUCCUCCACUUUCUUUAAGAAUCAGGG | 0.761 |
| AUGACCACCUAAAACAAUACUUUAUAUUGUUAUUUUUAGAAAGACUCAAAACACCUGUAUUUAAACCUUAAUAUGAAAAUCAUGCAAUUAAUAGUUACACAAGAUGUUUU | 0.457 |
| GAGAUCGUGCCACUGCACUCCAGCCUGGUCAACAGAGCAAGACUCCAUCUCGAAGAAAAAAAAAAAAAAUUCCCCACCCCUACCAAUUGUUUUACUUCCUCUUCCUGCUC | 0.715 |
| GGGGGGGUUAAUUUAUCAUUUAGAAAUCUUGCAUUUUCAAAAAUCCAGUGCAAGCGCCAGGUGAUCUGUGUCUGAGGAUACGAUUUUGAACCUUAUGAGCAGUGUACAAA | 0.623 |
| UAGUGUUCCCAGAGCACUUUGCAACUCCCUGGGUAAGAGGGACGACACCUCUGGUUUUUCAAUACCAAUUACAUGGAACUUUUCUGUAAUGGGUACAAUGAAGAAGUUUC | 0.422 |
| AAACCAAGUCAACAGCCAUCAAGCAGAUAUAUCCCAGGCCGCCCAGGAUGUGUGUCCUCCCUUGUGGUGGGAGGCAUGAAUUCUGACCCCUGUGACUGUGCAGCCUGACC | 0.383 |
| GAGAUUGUCUUUCUGCCACAGAACAGCUGCAAACGUGUCAGGAGGUUAGCUGAGAAAGAAAUCGGGCUGCUGCGGAGCACAGAGUGACUUGGAACUCCAUUCCACCUGAC | 0.582 |
| UAAAUAUUUCAGAUGCCUCACAGUAAGUUCACUCCUUUCCAUACUGAGGAAACAAGAAAAGAAGAAGAGGCACAUGAAGUGUGCUUUUGGGAAUAGAAUUUAAAAUUGGA | 0.507 |
| AUUUAGGCUUCAGAAUAUAUCCGAGAGGUGGGGAGGGUCCCUUGGAAGCUGGUGAAGUCCUGUUCUUAUUAUGAAUCCAUUCAUUCAAGAAAAUAGCCUGUUGCACAUUU | 2.02 |
| UCCUGCAUUCUGAAAUACAUUGGCCUAGAACAUUUUAUCCCAGGCAUUUUUGAAUAGAAAACAGUUGCGUGCUUUUAUUGAAGAUUGUUAAAAUAAUCACCAUAGUAACU | 0.937 |

Set 4 — method: RNA Bind-n-Seq; form: RNA; medium: in vitro; tested at: 200 nM; notes: whole 134-nt RNA, ends assumed; with: 150 mM LiCl; relative to: input library; reading: higher = stronger binding; library: 7-deaza-guanosine replaces G
Target: Fragile X messenger ribonucleoprotein 1, C-terminal low-complexity region (Fmr1, Mus musculus, UniProt P35922)
Shared flanks, not repeated: GGGAGUUCUACAGUCCGACGAUC … UGGAAUUCUCGGGUGUCAAGG
| Strand | log2 enrichment |
| --- | --- |
| ACCAUGCAGGUGGGCAUCUUUGGGAAGUGGGGCAAGGGGGGGAUAGGAAAGGGGGUAACACUUUGGGAACAGGUGGUCCCAGGUCGUUUC | 1.02 |
| UUCCUCAAGUCCUGUGCUACACAUCGUAUGUACCGAAUCGGUGGAGGAGGAAAGUAUUAUGUUACGCCGUUCGGAUCUGCACUUCCAGCA | -2.27 |
| UCCUGUGCUACACAUCGUAUGUACCGAAUCAAAUUUAAACCCCCCCAAACCCCCCCAAAAAAGUAUUAUGUUACGCCGUUCGGAUCUGCA | 1.42 |
| UCCUGUGCUACACAUCGUAUGUACCGAAUCAAAGUGUGUGUGUAAAGUGUGUGUGUAAAAAAGUAUUAUGUUACGCCGUUCGGAUCUGCA | -2.06 |
| CACAGACAACACGCACCCACACAGACACAGAGGGAAGGGGUUGGGAUGGGGACAGGGUGCACAGCAGGGCGGGAUAGGACCCCAGCCCCU | 1.17 |
| CCUCAAGUCCUGUGCUACACAUCGUAUGUACCGAAUCGGGGCGGGCGGCGGGGAAAGUAUUAUGUUACGCCGUUCGGAUCUGCACUUCCA | -0.0481 |
| UCAAGUCCUGUGCUACACAUCGUAUGUACCGAAUCGGAAAGGAAAAAGGAAAGGAAAGUAUUAUGUUACGCCGUUCGGAUCUGCACUUCC | -0.582 |
| CCUGUGCUACACAUCGUAUGUACCGAAUCGGCCCCCCCGGCCCCCCCGGGCCCCCCCGGGAAAGUAUUAUGUUACGCCGUUCGGAUCUGC | 1.24 |
| UCAAGUCCUGUGCUACACAUCGUAUGUACCGAAUCGGGUUGGGUUGGGGUUGGGAAAGUAUUAUGUUACGCCGUUCGGAUCUGCACUUCC | -1.08 |
| UGCGCCAACCUAGGCUUUCUUCUUCCUCUCCUCUUUAUAGGCGGAGUCGAUCUCCCAAAAGGAGAAGGUAGGCCUUCAGUCAUUUGUGAU | -0.912 |
| CAAGUCCUGUGCUACACAUCGUAUGUACCGAAUCGGUUUGGGUUUGGGUUUGGGGAAAGUAUUAUGUUACGCCGUUCGGAUCUGCACUUC | -1.27 |

Some of these lines once more (set 2):
| Strand | bound/input enrichment [ratio] |
| --- | --- |
| AUCUAUACAACCAUCAACGCUCACCAGUGGUCUGAGACGGUCCAGCCAAUUAUGGAAGCACUCCGAGAUGCAACAAGGAGACGCGCCUUUGCCCUGGUCUCUCAAGCGUAUACUUCAAUC | 0.177 |
| CAGUGGUAUUAAUGGAUGGCAUUAUGUUUGGAGGCAGCAGCAUAGAGGACUGUUGUUUACCGAGAAAAGAUUUGGGAAGGACUGUUUACAAUGUGGGUCAGCCUGAAGCCUGGGCACUUU | 0.705 |
| CCAGCAGAGAAGAAAUGUGGAGCGGAAACCCAGCACGAGGGGCUAGAACUCAGGGCCGAGAAUUUGCAGGCGGUGCAGACAGACUUUAGCUCCGAUCCACUGCAGAAAGUUGUGUGCUUC | 0.203 |
| AUAGAAUUCUGUACCCCAGUAAUCAACUAGUUUUCUAUUAAUGUGCUUGUCUGUUCUAAGAGCCGGAUUAACACAGGGGAAGUCUUGAGAAGGAGUUUUGAUUCUUUUAUAUGUUUUUAA | 4.57 |
